Measured values gathered from unrelated publications.
Each line is one published result; not all experiments were run side by side. ± gives the spread as reported.
ADCYAP1R1 del89-109: Pituitary adenylate cyclase-activating polypeptide type I receptor (ADCYAP1R1, Homo sapiens, UniProt P41586, del89-109)
Sequence of UniProt P21554 (whole entry, unmodified, looked up): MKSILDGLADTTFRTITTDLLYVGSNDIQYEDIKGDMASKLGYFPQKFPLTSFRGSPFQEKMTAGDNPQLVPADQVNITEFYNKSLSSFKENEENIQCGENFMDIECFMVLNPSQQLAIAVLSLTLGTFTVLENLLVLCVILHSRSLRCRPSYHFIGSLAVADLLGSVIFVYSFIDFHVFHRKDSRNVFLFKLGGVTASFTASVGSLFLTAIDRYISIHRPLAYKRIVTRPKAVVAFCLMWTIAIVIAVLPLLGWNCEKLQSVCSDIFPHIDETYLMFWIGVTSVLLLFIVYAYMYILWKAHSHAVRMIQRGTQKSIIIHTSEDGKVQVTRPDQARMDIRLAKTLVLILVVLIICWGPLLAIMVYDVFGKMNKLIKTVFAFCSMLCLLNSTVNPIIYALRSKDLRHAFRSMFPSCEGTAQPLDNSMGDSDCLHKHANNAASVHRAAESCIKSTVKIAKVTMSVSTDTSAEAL
Sequence of UniProt P41586 (whole entry, unmodified, looked up): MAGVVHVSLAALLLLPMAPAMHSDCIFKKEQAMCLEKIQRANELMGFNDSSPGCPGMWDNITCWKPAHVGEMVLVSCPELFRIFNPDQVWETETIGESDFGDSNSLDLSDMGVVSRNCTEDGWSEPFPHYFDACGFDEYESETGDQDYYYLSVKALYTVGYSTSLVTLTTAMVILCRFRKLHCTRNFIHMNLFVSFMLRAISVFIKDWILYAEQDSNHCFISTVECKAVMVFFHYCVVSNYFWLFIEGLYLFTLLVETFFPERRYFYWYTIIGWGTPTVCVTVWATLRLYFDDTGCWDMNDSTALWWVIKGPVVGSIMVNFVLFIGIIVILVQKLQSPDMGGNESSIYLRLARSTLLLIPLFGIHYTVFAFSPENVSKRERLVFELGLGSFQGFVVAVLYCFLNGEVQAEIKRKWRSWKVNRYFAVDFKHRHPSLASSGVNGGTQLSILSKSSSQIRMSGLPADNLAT
Sequence of UniProt P41143 (whole entry, unmodified, looked up): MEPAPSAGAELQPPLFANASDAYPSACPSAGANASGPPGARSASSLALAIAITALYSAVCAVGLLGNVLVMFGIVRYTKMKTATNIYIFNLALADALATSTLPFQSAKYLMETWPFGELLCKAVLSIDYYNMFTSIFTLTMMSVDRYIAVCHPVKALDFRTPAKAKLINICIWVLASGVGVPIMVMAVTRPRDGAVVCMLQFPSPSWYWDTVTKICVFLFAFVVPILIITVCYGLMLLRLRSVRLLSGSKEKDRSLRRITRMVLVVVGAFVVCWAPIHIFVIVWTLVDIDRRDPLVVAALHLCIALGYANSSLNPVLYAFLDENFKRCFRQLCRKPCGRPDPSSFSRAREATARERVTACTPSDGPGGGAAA
Sequence of UniProt P10398 (whole entry, looked up): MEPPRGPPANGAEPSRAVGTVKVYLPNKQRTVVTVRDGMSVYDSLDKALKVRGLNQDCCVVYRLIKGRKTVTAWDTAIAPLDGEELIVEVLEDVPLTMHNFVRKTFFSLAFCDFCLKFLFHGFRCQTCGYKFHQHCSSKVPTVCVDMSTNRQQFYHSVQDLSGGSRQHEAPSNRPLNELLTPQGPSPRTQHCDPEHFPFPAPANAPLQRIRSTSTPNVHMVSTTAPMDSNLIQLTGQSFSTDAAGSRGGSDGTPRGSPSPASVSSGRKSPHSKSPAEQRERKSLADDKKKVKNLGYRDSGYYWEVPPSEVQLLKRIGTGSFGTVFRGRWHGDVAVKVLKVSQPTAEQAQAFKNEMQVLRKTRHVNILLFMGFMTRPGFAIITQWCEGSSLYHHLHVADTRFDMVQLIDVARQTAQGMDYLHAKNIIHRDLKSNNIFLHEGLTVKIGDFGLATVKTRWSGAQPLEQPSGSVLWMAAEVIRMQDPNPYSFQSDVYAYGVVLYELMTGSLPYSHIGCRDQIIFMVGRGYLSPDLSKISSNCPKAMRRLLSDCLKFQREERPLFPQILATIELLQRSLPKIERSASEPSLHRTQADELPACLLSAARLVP
Sequence of UniProt O60674 (whole entry, looked up): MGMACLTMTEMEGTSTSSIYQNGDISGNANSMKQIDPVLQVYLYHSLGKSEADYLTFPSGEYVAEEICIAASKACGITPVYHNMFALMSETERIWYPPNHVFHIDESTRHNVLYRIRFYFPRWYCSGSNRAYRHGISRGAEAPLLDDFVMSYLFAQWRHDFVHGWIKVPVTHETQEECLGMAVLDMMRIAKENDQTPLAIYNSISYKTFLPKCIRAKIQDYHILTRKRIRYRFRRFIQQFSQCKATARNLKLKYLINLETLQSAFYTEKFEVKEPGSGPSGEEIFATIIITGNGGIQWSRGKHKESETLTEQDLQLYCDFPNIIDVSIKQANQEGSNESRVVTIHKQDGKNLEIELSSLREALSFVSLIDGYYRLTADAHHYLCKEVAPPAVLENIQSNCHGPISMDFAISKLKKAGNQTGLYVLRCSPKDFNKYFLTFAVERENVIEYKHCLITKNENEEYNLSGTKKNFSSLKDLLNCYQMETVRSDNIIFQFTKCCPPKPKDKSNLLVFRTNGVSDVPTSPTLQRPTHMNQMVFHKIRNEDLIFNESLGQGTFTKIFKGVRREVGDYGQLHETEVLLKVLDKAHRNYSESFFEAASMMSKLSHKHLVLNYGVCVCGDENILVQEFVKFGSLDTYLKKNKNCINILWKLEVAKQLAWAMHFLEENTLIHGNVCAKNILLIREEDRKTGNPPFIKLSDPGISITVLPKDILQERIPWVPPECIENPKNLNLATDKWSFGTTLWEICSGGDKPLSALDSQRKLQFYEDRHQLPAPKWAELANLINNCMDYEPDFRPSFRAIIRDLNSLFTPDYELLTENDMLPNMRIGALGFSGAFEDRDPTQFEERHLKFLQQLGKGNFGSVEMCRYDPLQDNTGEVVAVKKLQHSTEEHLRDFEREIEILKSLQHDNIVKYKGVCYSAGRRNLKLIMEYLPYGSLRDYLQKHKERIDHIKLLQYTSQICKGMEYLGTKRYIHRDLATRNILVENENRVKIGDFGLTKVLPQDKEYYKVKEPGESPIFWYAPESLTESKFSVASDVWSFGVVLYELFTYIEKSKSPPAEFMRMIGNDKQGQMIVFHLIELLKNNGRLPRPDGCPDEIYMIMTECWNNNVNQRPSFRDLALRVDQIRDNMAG

For `CC[C@H](C)[C@H](NC(=O)[C@@H](NC(C)=O)C(C)(C)C)C(=O)N[C@H](C(=O)N[C@H](C(=O)N[C@H](C(=O)NCC(=O)N1CCC[C@H]1C(=O)N[C@@H](Cc1c[nH]cn1)C(=O)N[C@@H](CCC(=O)O)C(=O)N[C@@H](CCC(=O)O)C(=O)N[C@@H](Cc1ccc(O)cc1)C(=O)N[C@@H](CCCCNC(=S)Nc1ccc2c(c1)C(=O)OC21c2ccc(O)cc2Oc2cc(O)ccc21)C(N)=O)[C@@H](C)O)[C@@H](C)CC)C(C)(C)C`, the Kd was over 5400 nM (Protein phosphatase 3 catalytic subunit alpha, with calcineurin B (PPP3CA, Homo sapiens, UniProt Q08209); binding, fluorescence polarisation; GST-calcineurin, added: FITC-labelled peptide).
`O=[N+]([O-])CC(c1ccco1)c1c(-c2ccccc2)[nH]c2ccccc12` (stereo not drawn) gave an EC50 of 410 nM (Cannabinoid receptor 1 (CNR1, Homo sapiens, UniProt P21554, V249A); G protein activation, agonist, BRET).
With `CC(C)(C)C(=O)OCOP(=O)(OCOC(=O)C(C)(C)C)C1CCCN(O)C1=O` (stereo not drawn) the TGI was 1740 nM (RXF 393).
The relative abundance of `COc1ccccc1-c1n[nH]c2nc(NC3CCN(C(=O)Cc4ccc(F)cc4F)CC3)ncc12` is reported as 0.93 (bead binding, competition bead pull-down, measured: LINJ.36.3100; Leishmania donovani axenic amastigote extract; 10 µM; baseline: vehicle).
The EC50 of `Cc1ccc2c(C(C[N+](=O)[O-])c3cccs3)c(-c3ccccc3)[nH]c2c1` (stereo not drawn) is reported as 70 nM (Cannabinoid receptor 1 (CNR1, Homo sapiens, UniProt P21554, V171A); G protein activation, agonist, BRET).
`CS(C)(=O)=Nc1ccc(-c2ccc(-c3nc4cc(O[C@@H]5CO[C@H]6[C@@H]5OC[C@H]6O)[nH]c4cc3F)cc2)cc1` gave an inhibition of 21% (Serine/threonine-protein kinase A-Raf (ARAF, Homo sapiens, UniProt P10398); enzyme activity, inhibitor; 10 µM).
With `COc1ccc(NC(=O)N2CCCCN3[C@H](CN(C)C)[C@H](c4ccc(C#Cc5ccccc5)cc4)[C@@H]3C2)cc1` the EC50 was 48 nM (Toxoplasma gondii; tachyzoite growth, luciferase; ME49-Fluc).
For `CSCC[C@H](NC(=O)[C@H](CCC(N)=O)NC(=O)[C@H](CCCCN)NC(=O)[C@H](CCCNC(=N)N)NC(=O)[C@H](Cc1ccc(O)cc1)NC(=O)[C@H](CCCNC(=N)N)NC(=O)[C@H](CO)NC(=O)[C@H](Cc1ccc(O)cc1)NC(=O)[C@H](CO)NC(=O)[C@H](CC(=O)O)NC(=O)[C@@H](NC(=O)[C@@H](N)Cc1ccccc1)[C@@H](C)O)C(=O)N[C@@H](C)C(=O)N[C@H](C(=O)N[C@@H](CCCCN)C(=O)N[C@@H](CCCCn1cc(C[C@H](NC(=O)CNC(=O)[C@H](CO)NC(=O)[C@H](CCCNC(=N)N)NC(=O)[C@H](CO)NC(=O)[C@H](CC(C)C)NC(=O)[C@H](CC(C)C)NC(=O)CNC(=O)[C@H](C)NC(=O)[C@H](CC(C)C)NC(=O)[C@H](CCCNC(=N)N)NC(=O)[C@H](Cc2c[nH]cn2)NC(=O)[C@@H](NC(=O)[C@@H](N)C(C)C)[C@@H](C)O)C(=O)N[C@H](C(=O)N[C@H](C(=O)N[C@@H](CCCCN)C(=O)N[C@@H](CC(N)=O)C(=O)N[C@@H](CC(N)=O)C(=O)N[C@@H](Cc2ccccc2)C(=O)N[C@H](C(=O)N2CCC[C@H]2C(=O)N[C@H](C(=O)N[C@@H](CC(N)=O)C(=O)N[C@H](C(=O)NCC(=O)N[C@@H](CO)C(=O)N[C@@H](CCCCN)C(=O)N[C@@H](C)C(=O)N[C@@H](Cc2ccccc2)C(N)=O)C(C)C)[C@@H](C)O)C(C)C)C(C)C)C(C)C)nn1)C(=O)N[C@@H](Cc1ccc(O)cc1)C(=O)N[C@@H](CC(C)C)C(=O)N[C@@H](C)C(=O)N[C@@H](C)C(=O)N[C@H](C(=O)N[C@@H](CC(C)C)C(=O)NCC(=O)N[C@@H](CCCCN)C(=O)N[C@@H](CCCNC(=N)N)C(=O)N[C@@H](Cc1ccc(O)cc1)C(=O)N[C@@H](CCCCN)C(=O)N[C@@H](CCC(N)=O)C(=O)N[C@@H](CCCNC(=N)N)C(=O)N[C@H](C(=O)N[C@@H](CCCCN)C(=O)N[C@@H](CC(N)=O)C(=O)N[C@@H](CCCCN)C(N)=O)C(C)C)C(C)C)C(C)C`, the Kb was over 10000 nM (ADCYAP1R1 del89-109; cAMP, antagonist).
For `O=C1NC2(CC2)COc2ncc(F)cc2[C@H]2COCCN2c2ccn3ncc1c3n2`, “organ-to-brain weight ratio” read 584 ± 111% (Sprague-Dawley rat, female, liver; oral, 20 mg/kg/day, 4 weeks, end of treatment).
For `CSCC[C@H](NC(=O)[C@H](CCC(N)=O)NC(=O)[C@H](CCCCN)NC(=O)[C@H](CCCNC(=N)N)NC(=O)[C@H](Cc1ccc(O)cc1)NC(=O)[C@H](CCCNC(=N)N)NC(=O)[C@H](CO)NC(=O)[C@H](Cc1ccc(O)cc1)NC(=O)[C@H](CO)NC(=O)[C@H](CC(=O)O)NC(=O)[C@@H](NC(=O)[C@@H](N)Cc1ccccc1)[C@@H](C)O)C(=O)N[C@@H](C)C(=O)N[C@H](C(=O)N[C@@H](CCCCN)C(=O)N[C@@H](CCCCN)C(=O)N[C@@H](Cc1ccc(O)cc1)C(=O)N[C@@H](CC(C)C)C(=O)N[C@@H](C)C(=O)N[C@@H](C)C(=O)N[C@H](C(=O)N[C@@H](CC(C)C)C(=O)NCC(=O)N[C@@H](CCCCN)C(=O)N[C@@H](CCCNC(=N)N)C(=O)N[C@@H](Cc1ccc(O)cc1)C(=O)N[C@@H](CCCCN)C(=O)N[C@@H](CCC(N)=O)C(=O)N[C@@H](CCCCn1cc(C[C@H](NC(=O)CNC(=O)[C@H](CO)NC(=O)[C@H](CCCNC(=N)N)NC(=O)[C@H](CO)NC(=O)[C@H](CC(C)C)NC(=O)[C@H](CC(C)C)NC(=O)CNC(=O)[C@H](C)NC(=O)[C@H](CC(C)C)NC(=O)[C@H](CCCNC(=N)N)NC(=O)[C@H](Cc2c[nH]cn2)NC(=O)[C@@H](NC(=O)[C@@H](N)C(C)C)[C@@H](C)O)C(=O)N[C@H](C(=O)N[C@H](C(=O)N[C@@H](CCCCN)C(=O)N[C@@H](CC(N)=O)C(=O)N[C@@H](CC(N)=O)C(=O)N[C@@H](Cc2ccccc2)C(=O)N[C@H](C(=O)N2CCC[C@H]2C(=O)N[C@H](C(=O)N[C@@H](CC(N)=O)C(=O)N[C@H](C(=O)NCC(=O)N[C@@H](CO)C(=O)N[C@@H](CCCCN)C(=O)N[C@@H](C)C(=O)N[C@@H](Cc2ccccc2)C(N)=O)C(C)C)[C@@H](C)O)C(C)C)C(C)C)C(C)C)nn1)C(=O)N[C@H](C(=O)N[C@@H](CCCCN)C(=O)N[C@@H](CC(N)=O)C(=O)N[C@@H](CCCCN)C(N)=O)C(C)C)C(C)C)C(C)C`, the Kb was 10.2 nM (ADCYAP1R1 del89-109; cAMP accumulation, antagonist; added: VIP).
`C=CC(=O)Nc1ccc(F)c(-c2ncnc3[nH]cc(C(=O)OCC)c23)c1` gave an IC50 of 8680 nM (Tyrosine-protein kinase JAK2 (JAK2, Homo sapiens, UniProt O60674); inhibitor, kinase; added: ATP 100 µM).
For `CCN(CC)C(=O)c1ccc(C(c2cccc(O)c2)N2CC(C)N(Cc3ccccc3)CC2C)cc1` (stereo not drawn), the Ki was 0.2 ± 0.04 nM (Delta-type opioid receptor (OPRD1, Homo sapiens, UniProt P41143, G268V)).

Excerpt of the above:
For `CSCC[C@H](NC(=O)[C@H](CCC(N)=O)NC(=O)[C@H](CCCCN)NC(=O)[C@H](CCCNC(=N)N)NC(=O)[C@H](Cc1ccc(O)cc1)NC(=O)[C@H](CCCNC(=N)N)NC(=O)[C@H](CO)NC(=O)[C@H](Cc1ccc(O)cc1)NC(=O)[C@H](CO)NC(=O)[C@H](CC(=O)O)NC(=O)[C@@H](NC(=O)[C@@H](N)Cc1ccccc1)[C@@H](C)O)C(=O)N[C@@H](C)C(=O)N[C@H](C(=O)N[C@@H](CCCCN)C(=O)N[C@@H](CCCCN)C(=O)N[C@@H](Cc1ccc(O)cc1)C(=O)N[C@@H](CC(C)C)C(=O)N[C@@H](C)C(=O)N[C@@H](C)C(=O)N[C@H](C(=O)N[C@@H](CC(C)C)C(=O)NCC(=O)N[C@@H](CCCCN)C(=O)N[C@@H](CCCNC(=N)N)C(=O)N[C@@H](Cc1ccc(O)cc1)C(=O)N[C@@H](CCCCN)C(=O)N[C@@H](CCC(N)=O)C(=O)N[C@@H](CCCCn1cc(C[C@H](NC(=O)CNC(=O)[C@H](CO)NC(=O)[C@H](CCCNC(=N)N)NC(=O)[C@H](CO)NC(=O)[C@H](CC(C)C)NC(=O)[C@H](CC(C)C)NC(=O)CNC(=O)[C@H](C)NC(=O)[C@H](CC(C)C)NC(=O)[C@H](CCCNC(=N)N)NC(=O)[C@H](Cc2c[nH]cn2)NC(=O)[C@@H](NC(=O)[C@@H](N)C(C)C)[C@@H](C)O)C(=O)N[C@H](C(=O)N[C@H](C(=O)N[C@@H](CCCCN)C(=O)N[C@@H](CC(N)=O)C(=O)N[C@@H](CC(N)=O)C(=O)N[C@@H](Cc2ccccc2)C(=O)N[C@H](C(=O)N2CCC[C@H]2C(=O)N[C@H](C(=O)N[C@@H](CC(N)=O)C(=O)N[C@H](C(=O)NCC(=O)N[C@@H](CO)C(=O)N[C@@H](CCCCN)C(=O)N[C@@H](C)C(=O)N[C@@H](Cc2ccccc2)C(N)=O)C(C)C)[C@@H](C)O)C(C)C)C(C)C)C(C)C)nn1)C(=O)N[C@H](C(=O)N[C@@H](CCCCN)C(=O)N[C@@H](CC(N)=O)C(=O)N[C@@H](CCCCN)C(N)=O)C(C)C)C(C)C)C(C)C`, the Kb was 10.2 nM (ADCYAP1R1 del89-109; cAMP accumulation, antagonist; added: VIP).
